Assay results collected from several papers.
Every numbered part comes from another study and shows a few of its results, in no order. Substitutions count along the parent as printed.

Series 1 — target: CCNB1, cyclin fold, Cln2 fusion (human); method: yeast growth competition, sequencing; sample: yeast; notes: strong parent motif; relative to: not given; reading: higher = stronger binding
Starting sequence: MASTL docking peptide (human); PMIAKNLMCELDE; partner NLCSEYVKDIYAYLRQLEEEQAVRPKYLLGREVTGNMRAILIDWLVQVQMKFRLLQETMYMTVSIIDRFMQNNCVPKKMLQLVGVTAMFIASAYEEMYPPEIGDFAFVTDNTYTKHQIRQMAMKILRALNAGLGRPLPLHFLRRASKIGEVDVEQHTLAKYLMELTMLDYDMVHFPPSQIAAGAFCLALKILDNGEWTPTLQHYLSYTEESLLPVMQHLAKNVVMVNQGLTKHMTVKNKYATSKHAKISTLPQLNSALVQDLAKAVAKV
`M8Y` — result for “normalised enrichment score”: 1.41.
`L7C`: “normalised enrichment score” -0.0233.
For `N6Q`, “normalised enrichment score” read 0.323.
`K5T` — result for “normalised enrichment score”: 0.321.
For `A4D`, “normalised enrichment score” read 0.191.
`L7K` — result for “normalised enrichment score”: 0.192.
`L7Q` — result for “normalised enrichment score”: 0.0544.
`N6K` — result for “normalised enrichment score”: 0.364.
For `C9K`, “normalised enrichment score” read 1.9.
Under “normalised enrichment score”, `D12K` is recorded as 0.643.
For `K5G`, “normalised enrichment score” read -0.247.
`M8D` — result for “normalised enrichment score”: 0.471.
Under “normalised enrichment score”, `M2S` is recorded as 2.86.
`M2A`: “normalised enrichment score” 2.04.
`L7N`: “normalised enrichment score” -0.0178.
Under “normalised enrichment score”, `C9E` is recorded as 2.06.
`D12A` — result for “normalised enrichment score”: 0.984.
`I3S` — result for “normalised enrichment score”: -0.18.
`L7H`: “normalised enrichment score” -0.375.
`K5W`: “normalised enrichment score” 0.326.
For `M2L`, “normalised enrichment score” read 2.2.
Under “normalised enrichment score”, `A4Q` is recorded as 1.28.
`A4F`: “normalised enrichment score” 1.33.
`C9V` — result for “normalised enrichment score”: 1.8.
Under “normalised enrichment score”, `M2P` is recorded as 2.37.

Series 2 — method: RNA Bind-n-Seq; molecule type: RNA; sample: in vitro; tested at: 365 nM; relative to: no-protein control; reading: higher = stronger binding
Target: RNA binding protein fox-1 homolog 2, RRM domain, GST-SBP tag (RBFOX2, Homo sapiens, UniProt O43251-10, residues 100-194)
Notes: natural RNA segment, single round, ends assumed
Shared flanks, not repeated: GGGAGUUCUACAGUCCGACGAUC … UGGAAUUCUCGGGUGCCAA
Under “RBNS enrichment (R)”, `AUUUUGGAUUUGGAACUUGGCUUUGUUUUUCAAUAGUGACAAGAAUGGUUCAGUUCUAGGAAUGUUCUGGAAGAUGCUGUUAAUUUUACUUUAAAAUGAGAAUCUGGUGU` is recorded as 0.637.
For `ACUUGCACCUGAUCAAGAGCAGUGCUGCUCCAUUUGUUUUGCAAAGAUAUGUUUUCAUUUCCUGUAUGUUCCAUUCCCUCUGAAGUCCCUUGGCCUGAUUUUAUCCAUUU`, “RBNS enrichment (R)” read 0.791.
Under “RBNS enrichment (R)”, `UGCCUGCUUUGCCUCCUCCUGUGUUUCCCUGCUCCAGGGCCACUUCCAGGGAUUACAUGGAGGAUCACCGAUGUCUUUUCUCAUGCCCACCAGAUAUCAAGUACUCAUGA` is recorded as 0.887.
Under “RBNS enrichment (R)”, `AGCCAUGGCCCUCCAGCUCCCCAGCCCGGCUGCGGAGUUGCAGCAGGUCCUGCCCAUCGGGCACAUGUCUCAAGCCCAUGGGGAGCAUAGCAGUCCGGGAGGCUGUGGAA` is recorded as 0.716.
For `UGAAUGAAUAGGUUGUGGCUGUCAACCUCUGGAACCAGAAGUGCCUGUAAGACAGUCCUUCAAGUUUUUACACAGAAGAGAAUUUUGAGUGUCCUCUCUAUGUUUCAAAU`, “RBNS enrichment (R)” read 1.13.
For `GCCGUGGUACUUUUCCAUUUAGAUUCAAAUGGAGCUAAAAUUAAGAGUUUUAUGAGCUGUUAAGAAUGAGGUAGUUUCUCCUAGGACCCCCCAAAGACAGUGCAAGUAAU`, “RBNS enrichment (R)” read 0.575.
`UACAUAACAGAAGAAACAACAAUAAGGAUACAAUUGUAUAUAAACACCUACUAUAACAUCCAUGUGUGUUUGGAUAAAGACCUCUUAGAACCAUGGAGAAAUUAACUCAG`: “RBNS enrichment (R)” 0.448.
`AACUCCAGCUCACACAUCUACCCAAGAUGCUUGGGGUUCUCUUUUUUCAUCUGAUUAUGUUAGGCCCUAGCUCUAGGUCAGCCCUGCUGGGCCCUUGAGAGGGGCUCUGU`: “RBNS enrichment (R)” 0.441.

Series 3 — method: DHFR PCA, dose-response; sample: yeast; notes: Hill fit, mean, not affinity; together with: (+)-ABA, dose series; reading: lower = more sensitive
Target: ABI1, truncated, D143A, DHFR fusion (Arabidopsis thaliana, UniProt P49597)
Starting sequence: PYL1, truncated, DHFR fusion (Arabidopsis thaliana, UniProt Q8VZS8); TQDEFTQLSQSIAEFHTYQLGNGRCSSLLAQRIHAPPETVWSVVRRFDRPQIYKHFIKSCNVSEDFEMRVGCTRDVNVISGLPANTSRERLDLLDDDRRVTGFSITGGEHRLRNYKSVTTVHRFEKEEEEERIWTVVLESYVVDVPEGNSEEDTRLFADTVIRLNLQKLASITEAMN
The ABA EC50 of `D144A` is reported as 48.2 µM.
The ABA EC50 of `I172E` is reported as 39.5 µM.
The ABA EC50 of `S59V` is reported as 20.8 µM.
`L138R` has an ABA EC50 of 918 µM.
With `R32I` the ABA EC50 was 3.51 µM.
For `V62I`, the ABA EC50 was 3.44 µM.
`R155A` gave an ABA EC50 of 29.5 µM.
`P36F` has an ABA EC50 of 25.9 µM.
With `Q19A` the ABA EC50 was 3.52 µM.
`R24T` has an ABA EC50 of 1.95 µM.
`R24F` gave an ABA EC50 of 30.3 µM.
`L166C` has an ABA EC50 of 438 µM.
For `S27K`, the ABA EC50 was 84.2 µM.
`S80H` has an ABA EC50 of 113 µM.
With `E67M` the ABA EC50 was 4.2 µM.
`R98K` gave an ABA EC50 of 2.81 µM.
`V62F` has an ABA EC50 of 13.2 µM.
The ABA EC50 of `G71A` is reported as 102 µM.
With `C60S` the ABA EC50 was 34.2 µM.
`E14P` gave an ABA EC50 of 123 µM.
The ABA EC50 of `A175Y` is reported as 4.71 µM.
`T119A` has an ABA EC50 of 204 µM.
`R49H` gave an ABA EC50 of 4.12 µM.
For `T1I`, the ABA EC50 was 1.43 µM.

Series 4 — method: universal PBM; molecule type: double-stranded DNA, one strand shown; sample: in vitro; tested at: 600 nM; reading: higher = stronger binding
Target: Sal-like protein 4, full length isoform A (SALL4, Homo sapiens, UniProt Q9UJQ4, residues 1-1053)
Chain of UniProt Q9UJQ4 (whole entry, looked up): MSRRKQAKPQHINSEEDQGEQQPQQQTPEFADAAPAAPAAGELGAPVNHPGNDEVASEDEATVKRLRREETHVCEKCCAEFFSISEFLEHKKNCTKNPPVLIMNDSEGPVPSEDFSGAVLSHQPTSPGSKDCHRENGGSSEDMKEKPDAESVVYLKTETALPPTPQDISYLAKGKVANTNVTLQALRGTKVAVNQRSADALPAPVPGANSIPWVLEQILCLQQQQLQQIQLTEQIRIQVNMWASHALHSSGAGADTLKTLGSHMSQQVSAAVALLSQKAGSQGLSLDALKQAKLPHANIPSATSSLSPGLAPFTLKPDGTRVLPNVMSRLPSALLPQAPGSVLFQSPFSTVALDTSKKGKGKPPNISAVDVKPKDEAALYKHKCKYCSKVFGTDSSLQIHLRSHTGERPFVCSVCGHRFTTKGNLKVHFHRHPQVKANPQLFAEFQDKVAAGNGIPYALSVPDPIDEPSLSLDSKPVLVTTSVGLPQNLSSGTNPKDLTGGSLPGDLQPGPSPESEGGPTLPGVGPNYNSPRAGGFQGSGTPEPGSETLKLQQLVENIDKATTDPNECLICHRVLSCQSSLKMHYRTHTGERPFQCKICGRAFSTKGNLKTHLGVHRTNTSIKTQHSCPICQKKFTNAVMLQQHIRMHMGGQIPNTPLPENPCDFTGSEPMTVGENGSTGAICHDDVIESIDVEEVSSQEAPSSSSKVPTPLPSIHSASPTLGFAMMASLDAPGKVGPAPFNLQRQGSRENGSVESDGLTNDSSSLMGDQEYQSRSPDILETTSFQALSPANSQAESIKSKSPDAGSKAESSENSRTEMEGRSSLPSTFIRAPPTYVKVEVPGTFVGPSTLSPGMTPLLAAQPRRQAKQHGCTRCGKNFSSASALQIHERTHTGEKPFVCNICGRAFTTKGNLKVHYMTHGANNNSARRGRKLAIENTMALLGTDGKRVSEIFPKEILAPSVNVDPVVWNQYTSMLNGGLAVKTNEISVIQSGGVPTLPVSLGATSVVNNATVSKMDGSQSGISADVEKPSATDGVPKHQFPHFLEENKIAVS
Notes: 8-mer, flanks averaged, mean of replicates
The E-score of `GCTGAAGC` is reported as -0.175.
The E-score of `AGCCCCGG` is reported as -0.433.
For `AATAAATG`, the E-score was 0.349.
With `CGTTCTCA` the E-score was 0.0272.
The E-score of `ATTGCATC` is reported as 0.137.
`CAAGGCAC` has an E-score of -0.263.
The E-score of `CCTCAGAG` is reported as -0.314.
`GGTAGATA` has an E-score of 0.163.
The E-score of `ACCCCCAC` is reported as -0.259.
With `CGAGATCA` the E-score was -0.115.
`CCTTTACG` has an E-score of 0.0611.
For `ATCTTACG`, the E-score was 0.136.
`CGAACCGA` gave an E-score of -0.0995.
`GGGCAGAA` gave an E-score of 0.0109.
The E-score of `AATATCAG` is reported as 0.273.
The E-score of `AGGGTCAT` is reported as -0.0201.
The E-score of `TAAGCATA` is reported as 0.366.
With `GTGCCGCA` the E-score was -0.134.
`ACAGGTCT` has an E-score of -0.0899.
For `ACGCCACA`, the E-score was -0.048.
For `AGAAACTC`, the E-score was 0.0297.
`CAATGCGC` has an E-score of -0.00828.
The E-score of `ACCCAGCC` is reported as -0.32.
With `CAATGTCG` the E-score was -0.0131.
For `AGCGAGAT`, the E-score was 0.0431.

Excerpt of the above (series 1):
For `C9K`, “normalised enrichment score” read 1.9.
`L7K` — result for “normalised enrichment score”: 0.192.
Under “normalised enrichment score”, `A4Q` is recorded as 1.28.
`A4F`: “normalised enrichment score” 1.33.
Under “normalised enrichment score”, `D12K` is recorded as 0.643.
`D12A` — result for “normalised enrichment score”: 0.984.
